Measured values from different studies.
Each line is one published result; not all experiments were run side by side.
sdiA: Regulatory protein SdiA (sdiA, Escherichia coli, UniProt P07026)
UniProt P07026, sequence (whole entry, looked up): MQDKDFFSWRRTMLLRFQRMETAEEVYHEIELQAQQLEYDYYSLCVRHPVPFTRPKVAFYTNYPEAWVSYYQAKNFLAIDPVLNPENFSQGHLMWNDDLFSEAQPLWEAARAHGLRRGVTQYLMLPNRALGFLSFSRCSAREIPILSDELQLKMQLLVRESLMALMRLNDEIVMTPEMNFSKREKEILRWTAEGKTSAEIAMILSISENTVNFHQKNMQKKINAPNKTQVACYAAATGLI
Histidine kinase AgrC: Histidine kinase AgrC (Listeria monocytogenes, UniProt A8E0G3)
UniProt O55040, sequence (whole entry, looked up): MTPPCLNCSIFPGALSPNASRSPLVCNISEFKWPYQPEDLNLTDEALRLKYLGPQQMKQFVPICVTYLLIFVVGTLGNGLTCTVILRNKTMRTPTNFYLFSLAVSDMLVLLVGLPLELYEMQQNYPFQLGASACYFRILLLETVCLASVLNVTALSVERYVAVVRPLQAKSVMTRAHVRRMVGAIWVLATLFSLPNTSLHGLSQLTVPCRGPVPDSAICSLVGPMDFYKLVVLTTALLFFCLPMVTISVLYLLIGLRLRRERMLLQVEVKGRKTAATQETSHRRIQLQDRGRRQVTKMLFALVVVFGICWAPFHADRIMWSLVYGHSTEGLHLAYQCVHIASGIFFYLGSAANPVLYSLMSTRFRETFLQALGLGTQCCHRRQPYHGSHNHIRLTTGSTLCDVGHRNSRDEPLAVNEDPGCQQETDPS
UniProt P30874, sequence (whole entry, looked up): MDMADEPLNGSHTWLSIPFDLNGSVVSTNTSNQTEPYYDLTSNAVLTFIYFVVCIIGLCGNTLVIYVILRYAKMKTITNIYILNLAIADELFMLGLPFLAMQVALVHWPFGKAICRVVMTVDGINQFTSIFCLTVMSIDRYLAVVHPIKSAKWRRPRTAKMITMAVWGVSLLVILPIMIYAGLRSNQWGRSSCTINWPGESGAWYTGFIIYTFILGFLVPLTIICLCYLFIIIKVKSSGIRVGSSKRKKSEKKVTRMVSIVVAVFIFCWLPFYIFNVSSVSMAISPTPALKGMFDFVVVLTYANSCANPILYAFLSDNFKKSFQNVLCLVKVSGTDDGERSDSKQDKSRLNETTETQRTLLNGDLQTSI
UniProt P28566, sequence (whole entry, looked up): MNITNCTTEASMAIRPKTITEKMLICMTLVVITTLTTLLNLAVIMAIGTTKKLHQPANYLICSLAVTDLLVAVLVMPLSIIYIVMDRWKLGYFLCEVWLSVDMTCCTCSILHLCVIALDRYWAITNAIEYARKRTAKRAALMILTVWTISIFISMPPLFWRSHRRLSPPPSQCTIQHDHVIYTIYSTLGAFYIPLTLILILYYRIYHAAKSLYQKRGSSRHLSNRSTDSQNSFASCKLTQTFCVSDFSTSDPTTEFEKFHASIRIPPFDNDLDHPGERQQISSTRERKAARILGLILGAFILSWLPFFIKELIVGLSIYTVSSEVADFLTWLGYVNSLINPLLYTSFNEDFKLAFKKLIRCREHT
UniProt P30559, sequence (whole entry, looked up): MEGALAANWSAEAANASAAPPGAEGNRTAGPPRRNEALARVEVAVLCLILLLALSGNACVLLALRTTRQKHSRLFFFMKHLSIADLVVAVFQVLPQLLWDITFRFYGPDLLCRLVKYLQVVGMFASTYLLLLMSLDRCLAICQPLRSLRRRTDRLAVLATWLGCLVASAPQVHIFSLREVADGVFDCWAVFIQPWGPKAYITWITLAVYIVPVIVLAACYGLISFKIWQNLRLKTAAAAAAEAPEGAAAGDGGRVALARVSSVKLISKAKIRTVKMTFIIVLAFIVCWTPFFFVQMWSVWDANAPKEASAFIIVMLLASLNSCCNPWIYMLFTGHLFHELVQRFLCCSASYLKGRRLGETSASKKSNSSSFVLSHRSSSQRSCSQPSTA
UniProt O75469, sequence (whole entry, looked up): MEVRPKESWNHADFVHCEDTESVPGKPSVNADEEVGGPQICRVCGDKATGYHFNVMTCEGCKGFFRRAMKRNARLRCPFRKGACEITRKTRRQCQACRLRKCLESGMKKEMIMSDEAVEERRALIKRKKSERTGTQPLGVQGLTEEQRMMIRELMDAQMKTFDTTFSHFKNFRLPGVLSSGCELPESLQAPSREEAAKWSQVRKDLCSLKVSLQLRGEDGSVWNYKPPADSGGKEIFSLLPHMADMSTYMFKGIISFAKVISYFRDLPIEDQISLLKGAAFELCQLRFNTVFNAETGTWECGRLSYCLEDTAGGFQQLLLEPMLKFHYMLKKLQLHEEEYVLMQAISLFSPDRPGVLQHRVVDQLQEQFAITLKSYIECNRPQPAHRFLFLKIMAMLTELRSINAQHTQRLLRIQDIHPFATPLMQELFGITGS

SMILES = CC(C)C[C@H](N)C(=O)N[C@@H](Cc1ccccc1)C(=O)N[C@H]1CSSC[C@@H](C(=O)N[C@@H](Cc2c[nH]c3ccccc23)C(=O)O)NC(=O)[C@H](CO)NC(=O)[C@H](CCCCN)NC(=O)[C@@H](Cc2c[nH]c3ccccc23)NC(=O)[C@H](Cc2ccccc2)NC1=O; target = Somatostatin receptor type 2 (SSTR2, Homo sapiens, UniProt P30874); observed = β-arrestin recruitment; action = agonist; EC50 = 2.58 nM
SMILES = O=C(Cc1ccc(Br)cc1)N[C@H]1CCOC1=O; target = sdiA; EC50 = 1.86 nM
SMILES = CCCCCCCCCCCCCCCCCC(=O)NC[C@H]1CC[C@H](C(=O)N[C@@H](CCC(=O)NCCCOCCOCCOCCCNC(=O)COCC(=O)N[C@@H](Cc2ccc(O)cc2)C(=O)NC(C)(Cc2ccccc2)C(=O)N[C@@H](CC(C)C)C(=O)N[C@@H](CCCC)C(=O)N[C@@H](CCCNC(=N)N)C(=O)N2CCC[C@H]2C(=O)N[C@@H](CCCNC(=N)NC)C(=O)N[C@@H](CC(N)=O)C(N)=O)C(=O)O)CC1 (stereo partly drawn); target = Neuromedin-U receptor 1 (Mus musculus, UniProt O55040); observed = inositol phosphate; action = agonist; EC50 = > 10000 nM
SMILES = CC[C@H](C)[C@@H]1NC(=O)[C@H](Cc2ccc(O)cc2)NC(=O)[C@@H](N)CSSC[C@H](N)C(=O)N[C@@H](Cc2ccc(O)cc2)C(=O)N[C@@H]([C@@H](C)CC)C(=O)N[C@@H](CCC(N)=O)C(=O)N[C@@H](CC(N)=O)C(=O)N[C@H](C(=O)N2CCC[C@H]2C(=O)N[C@@H](CC(C)C)C(=O)NCC(N)=O)CSSC[C@@H](C(=O)N2CCC[C@H]2C(=O)N[C@@H](CC(C)C)C(=O)NCC(N)=O)NC(=O)[C@H](CC(N)=O)NC(=O)[C@H](CCC(N)=O)NC1=O; target = Oxytocin receptor (OXTR, Homo sapiens, UniProt P30559); observed = calcium signal; action = agonist; method = fluorescence; EC50 = 621 nM
SMILES = O=C(NCc1cc(Br)cc(Br)c1OC(=O)c1ccccc1[N+](=O)[O-])c1ccccc1Cl; target = Transcriptional activator protein LasR (lasR, Pseudomonas aeruginosa, UniProt P25084); observed = reporter gene; action = agonist; strain = ΔmexAB-oprM pump mutant; EC50 = 36 nM
SMILES = CC(C)[C@@H]1NC(=O)[C@H](Cc2ccccc2)NC(=O)[C@H](C)NC(=O)[C@H](Cc2ccccc2)NC(=O)[C@@H](NC(=O)[C@H](C)N)CSC1=O; target = Histidine kinase AgrC; EC50 = 1980 nM
SMILES = CCCCCCC(=O)N[C@H]1CCSC1=O; target = sdiA; EC50 = 2.35 nM
SMILES = O=C(O)CCn1c(=O)oc2cc(Cl)c(Cl)cc21; target = Nuclear receptor subfamily 1 group I member 2 (NR1I2, Homo sapiens, UniProt O75469); observed = reporter activity; action = activator; EC50 = > 50100 nM
SMILES = CSCC[C@@H]1NC(=O)[C@H](Cc2ccccc2)NC(=O)[C@@H](NC(=O)[C@H](C)N)CSC(=O)[C@H](C(C)C)NC(=O)[C@H](Cc2ccccc2)NC1=O; target = Histidine kinase AgrC; EC50 = 29.7 nM
SMILES = CCCCCCCCCC(O)CC(=O)N[C@H]1CCOC1=O (stereo partly drawn); target = sdiA; EC50 = 231 nM
SMILES = CSCC[C@@H]1NC(=O)[C@H](Cc2ccccc2)NC(=O)[C@@H](NC(=O)[C@H](C)N)CSC(=O)[C@H](C(C)C)NC(=O)[C@H](Cc2ccc(O)cc2)NC1=O; target = Histidine kinase AgrC; EC50 = 5620 nM
SMILES = CN1CCC(c2c[nH]c3ccc(O)cc23)CC1; target = 5-hydroxytryptamine receptor 1E (HTR1E, Homo sapiens, UniProt P28566); observed = G protein activation; action = agonist; method = BRET; EC50 = 2.48 nM

A few entries again:
SMILES = CCCCCCCCCCCCCCCCCC(=O)NC[C@H]1CC[C@H](C(=O)N[C@@H](CCC(=O)NCCCOCCOCCOCCCNC(=O)COCC(=O)N[C@@H](Cc2ccc(O)cc2)C(=O)NC(C)(Cc2ccccc2)C(=O)N[C@@H](CC(C)C)C(=O)N[C@@H](CCCC)C(=O)N[C@@H](CCCNC(=N)N)C(=O)N2CCC[C@H]2C(=O)N[C@@H](CCCNC(=N)NC)C(=O)N[C@@H](CC(N)=O)C(N)=O)C(=O)O)CC1 (stereo partly drawn); target = Neuromedin-U receptor 1 (Mus musculus, UniProt O55040); observed = inositol phosphate; action = agonist; EC50 = > 10000 nM
SMILES = CC[C@H](C)[C@@H]1NC(=O)[C@H](Cc2ccc(O)cc2)NC(=O)[C@@H](N)CSSC[C@H](N)C(=O)N[C@@H](Cc2ccc(O)cc2)C(=O)N[C@@H]([C@@H](C)CC)C(=O)N[C@@H](CCC(N)=O)C(=O)N[C@@H](CC(N)=O)C(=O)N[C@H](C(=O)N2CCC[C@H]2C(=O)N[C@@H](CC(C)C)C(=O)NCC(N)=O)CSSC[C@@H](C(=O)N2CCC[C@H]2C(=O)N[C@@H](CC(C)C)C(=O)NCC(N)=O)NC(=O)[C@H](CC(N)=O)NC(=O)[C@H](CCC(N)=O)NC1=O; target = Oxytocin receptor (OXTR, Homo sapiens, UniProt P30559); observed = calcium signal; action = agonist; method = fluorescence; EC50 = 621 nM
